# Measured values gathered from unrelated publications.
# Lines come from different studies, so protocols differ.
# CA9: Carbonic anhydrase 9 (CA9, Homo sapiens, UniProt Q16790)
# HDAC2: Histone deacetylase 2 (HDAC2, Homo sapiens, UniProt Q92769)
# Proline--tRNA ligase: Proline--tRNA ligase (Plasmodium falciparum, UniProt Q8I5R7)
# BIRC2 BIR3 domain: Baculoviral IAP repeat-containing protein 2, BIR3 domain (BIRC2, Homo sapiens, UniProt Q13490)
# GRPR: Gastrin-releasing peptide receptor (GRPR, Homo sapiens, UniProt P30550)
# NOS3: Nitric oxide synthase 3 (NOS3, Bos taurus, UniProt P29473)
SMILES,target,assay,test system,setting,scale,selectivity ratio
COc1cc(-c2ccnc3nc(Nc4ccc(S(N)(=O)=O)cc4)nn23)cc(OC)c1OC,CA9,inhibitor,,,baseline: Ki hCA IV over Ki CA9,21.8
CCC[C@H]1CC[C@H](c2ccc(C(=O)NC[C@@H]3[C@@H](O)[C@@H](O)[C@H]4[C@H](O)CCCN43)cc2)CC1,"Alpha-mannosidase 2 (Homo sapiens, UniProt Q16706)",inhibitor,,added: fluorogenic mannoside substrate,baseline: lysosomal over Golgi mannosidase Ki,9.3
O=C(CCCCCCN(Cc1ccc([N+](=O)[O-])cc1)Cc1ccc([N+](=O)[O-])cc1)NO,HDAC2,"deacetylase activity, inhibitor, fluorescence",,added: Boc-Lys(Ac)-AMC substrate,baseline: IC50 HDAC2 over IC50 HDAC1,2
Cc1cc(N2CC[C@@](C#N)(C3CC3)C2=O)cc(NC(=O)Cc2ccccc2)n1,Proline--tRNA ligase,"binding, microscale thermophoresis",,,baseline: human over P. falciparum Kd,0.1
CN[C@@H](C)C(=O)N[C@H]1CN(C(=O)Cc2ccccc2)CC[C@H]2CC[C@@H](C(=O)NCc3ccc(OC)cc3)N2C1=O,BIRC2 BIR3 domain,fluorescence polarization,,,baseline: Ki XIAP over Ki cIAP1,904
O=C(Nc1ccc(C(=O)Nc2ccc(C(=O)Nc3ccc(S(=O)(=O)O)c4cc(S(=O)(=O)O)cc(S(=O)(=O)O)c34)cc2)cc1)Nc1ccc(C(=O)Nc2ccc(C(=O)Nc3ccc(S(=O)(=O)O)c4cc(S(=O)(=O)O)cc(S(=O)(=O)O)c34)cc2)cc1,"Chymotrypsinogen A (Bos taurus, UniProt P00766)",,,,baseline: HNE over Chymotrypsinogen A,≥ 818 fold
CSCC[C@H](NC(=O)[C@H](CC(C)C)NC(=O)[C@H](Cc1c[nH]cn1)NC(=O)[C@@H](C)NC(=O)[C@@H](NC(=O)[C@H](C)NC(=O)[C@H](Cc1c[nH]c2ccccc12)NC(=O)[C@H](CCC(N)=O)NC(=O)[C@H](CC(N)=O)NC(=O)CNC(=O)[C@H](CC(C)C)NC(=O)[C@H](CCCNC(=N)N)NC(=O)[C@H](CCC(N)=O)NC(=O)[C@@H]1CCC(=O)N1)C(C)C)C(N)=O,GRPR,binding,HuTu80 and BALB/3T3 hGRPR,,baseline: GRPR over NMBR,> 200 fold
Cc1cc(N)nc(C[C@@H]2CNC[C@@H]2OCCCCCc2cc(F)cc(Cl)c2)c1,NOS3,"enzyme activity, inhibitor",,,baseline: Ki NOS3 over Ki nNOS,155
CN[C@@H](C)C(=O)N[C@H]1CN(C(=O)Cc2ccccc2)CC[C@H]2CC[C@@H](C(=O)NCc3ccc(C(C)(C)C)cc3)N2C1=O,BIRC2 BIR3 domain,fluorescence polarization,,,baseline: Ki XIAP over Ki cIAP1,782
CC(C)C[C@H]1CN[C@H](C(N)=O)CSSC[C@@H](N)C(=O)N[C@@H](CCC(N)=O)C(=O)N[C@@H](Cc2c[nH]c3ccccc23)C(=O)N[C@@H](C)C(=O)N[C@@H](C(C)C)C(=O)N[C@H](C)C(=O)N[C@@H](Cc2c[nH]cn2)C(=O)N1,GRPR,"binding, radioligand binding",transfected BALB/3T3,,baseline: GRPR over NMBR affinity,> 5 fold
N=C(N)NCCC[C@@H]1NC(=O)[C@H](Cc2c[nH]c3ccccc23)NC(=O)[C@H](CCCNC(=N)N)NC(=O)[C@H](Cc2c[nH]c3ccccc23)NC(=O)[C@H](CCCNC(=N)N)NC(=O)[C@H](Cc2c[nH]c3ccccc23)NC(=O)[C@H](CCCNC(=N)N)NC(=O)[C@H](Cc2c[nH]c3ccccc23)NC(=O)[C@H](CCCNC(=N)N)NC(=O)[C@H](Cc2c[nH]c3ccccc23)NC(=O)[C@H](CCCNC(=N)N)NC(=O)[C@H](Cc2c[nH]c3ccccc23)NC(=O)[C@H](CCCNC(=N)N)NC(=O)[C@H](Cc2c[nH]c3ccccc23)NC(=O)[C@H](CCCNC(=N)N)NC(=O)[C@H](Cc2c[nH]c3ccccc23)NC(=O)[C@H](CCCNC(=N)N)NC(=O)[C@H](Cc2c[nH]c3ccccc23)NC1=O,"SRC (Homo sapiens, UniProt P12931)",enzyme activity,,,baseline: IC50 PKC-alpha over IC50 SRC,14
Cc1cc(N)nc(C[C@@H]2CNC[C@@H]2OCCCCCc2cccc(N)n2)c1,NOS3,"enzyme activity, inhibitor",,,baseline: Ki NOS3 over Ki nNOS,1120
Cc1cc(N2CC[C@](C#N)(C3(C)CC3)C2=O)cc(C(=O)NCc2cc(F)cc(-c3cnn(C)c3)c2)n1,Proline--tRNA ligase,"binding, microscale thermophoresis",,,baseline: human over P. falciparum Kd,3.8
CN[C@@H](C)C(=O)N[C@H]1CN(C(=O)Cc2ccccc2)CC[C@H]2CC[C@@H](C(=O)NCc3ccccc3C(F)(F)F)N2C1=O,BIRC2 BIR3 domain,fluorescence polarization,,,baseline: Ki XIAP over Ki cIAP1,175
O=C(CCCCCCNCc1cccnc1)NO,HDAC2,"deacetylase activity, inhibitor, fluorescence",,added: Boc-Lys(Ac)-AMC substrate,baseline: IC50 HDAC2 over IC50 HDAC1,7.4
N[C@@H](CCC(=O)N[C@@H](CS[Se]Cc1ccc(-c2cccc(C(O)c3ccc(Cl)c(Cl)c3)c2)cc1)C(=O)NCC(=O)O)C(=O)O (stereo partly shown),"Cathepsin B (CTSB, Homo sapiens, UniProt P07858)","enzyme activity, inhibitor",,added: glutathione 1 mM,baseline: IC50 cathepsin B over STEP,> 100
NS(=O)(=O)c1ccc(Nc2nc3nccc(-c4ccc5ccccc5c4)n3n2)cc1,CA9,inhibitor,,,baseline: Ki hCA II over Ki CA9,5.7
CN[C@@H](C)C(=O)N[C@H]1CN(C(=O)Cc2ccccc2)CC[C@H]2CC[C@@H](C(=O)NCc3cccc(Br)c3)N2C1=O,BIRC2 BIR3 domain,fluorescence polarization,,,baseline: Ki XIAP over Ki cIAP1,47
Cc1cc(N)nc(C[C@@H]2CNC[C@@H]2OCCCCOc2cc(F)cc(Cl)c2)c1,NOS3,"enzyme activity, inhibitor",,,baseline: Ki NOS3 over Ki nNOS,37
O=C(CCCCCCNCc1ccc(-c2ccccc2)s1)NO,HDAC2,"deacetylase activity, inhibitor, fluorescence",,added: Boc-Lys(Ac)-AMC substrate,baseline: IC50 HDAC2 over IC50 HDAC1,14
CN[C@@H](C)C(=O)N[C@H]1CN(C(=O)Cc2ccccc2)CC[C@H]2CC[C@@H](C(=O)NCc3ccc(-c4ccccc4)cc3)N2C1=O,BIRC2 BIR3 domain,fluorescence polarization,,,baseline: Ki XIAP over Ki cIAP1,92
Cc1cc(CNCCCCCCC(=O)NO)ccc1F,HDAC2,"deacetylase activity, inhibitor, fluorescence",,added: Boc-Lys(Ac)-AMC substrate,baseline: IC50 HDAC2 over IC50 HDAC1,5.6
Cc1cc(N2CCC(CO)(C3CC3)C2=O)cc(C(=O)NCc2cc(F)cc(-c3cnn(C)c3)c2)n1 (stereo not shown),Proline--tRNA ligase,"aminoacylation activity, inhibitor, malachite green",,,baseline: human over P. falciparum IC50,19
CCN(CC)c1ccc(CNC(=O)[C@@H]2CC[C@@H]3CCN(C(=O)Cc4ccccc4)C[C@H](NC(=O)[C@H](C)NC)C(=O)N32)cc1,BIRC2 BIR3 domain,fluorescence polarization,,,baseline: Ki XIAP over Ki cIAP1,287
O=C(CCCCCCN(Cc1ccc(F)cc1)Cc1ccc(F)cc1)NO,HDAC2,"deacetylase activity, inhibitor, fluorescence",,added: Boc-Lys(Ac)-AMC substrate,baseline: IC50 HDAC2 over IC50 HDAC1,2.6

# A few entries again:
SMILES,target,assay,test system,setting,scale,selectivity ratio
CN[C@@H](C)C(=O)N[C@H]1CN(C(=O)Cc2ccccc2)CC[C@H]2CC[C@@H](C(=O)NCc3ccccc3C(F)(F)F)N2C1=O,BIRC2 BIR3 domain,fluorescence polarization,,,baseline: Ki XIAP over Ki cIAP1,175
O=C(CCCCCCNCc1cccnc1)NO,HDAC2,"deacetylase activity, inhibitor, fluorescence",,added: Boc-Lys(Ac)-AMC substrate,baseline: IC50 HDAC2 over IC50 HDAC1,7.4
N[C@@H](CCC(=O)N[C@@H](CS[Se]Cc1ccc(-c2cccc(C(O)c3ccc(Cl)c(Cl)c3)c2)cc1)C(=O)NCC(=O)O)C(=O)O (stereo partly shown),"Cathepsin B (CTSB, Homo sapiens, UniProt P07858)","enzyme activity, inhibitor",,added: glutathione 1 mM,baseline: IC50 cathepsin B over STEP,> 100
